Measured values of several laboratories.
A part holds a random share of what one study measured. Positions count from the first letter of the parent shown.
Chain of UniProt Q9Y2X8 (whole entry, looked up): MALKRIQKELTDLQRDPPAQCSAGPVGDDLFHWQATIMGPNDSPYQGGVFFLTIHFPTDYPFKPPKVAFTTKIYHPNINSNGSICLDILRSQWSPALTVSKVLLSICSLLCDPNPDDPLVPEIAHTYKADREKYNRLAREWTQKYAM

Series 1 — technique: DHFR PCA, deep sequencing; medium: yeast; added: (+)-ABA 200 µM; baseline: wild-type fitted maximum; reading: higher = stronger binding
Target: ABI1, truncated, D143A, DHFR fusion (Arabidopsis thaliana)
Setting: methotrexate growth selection, single substitutions
Starting sequence: PYL1, truncated, DHFR fusion (Arabidopsis thaliana); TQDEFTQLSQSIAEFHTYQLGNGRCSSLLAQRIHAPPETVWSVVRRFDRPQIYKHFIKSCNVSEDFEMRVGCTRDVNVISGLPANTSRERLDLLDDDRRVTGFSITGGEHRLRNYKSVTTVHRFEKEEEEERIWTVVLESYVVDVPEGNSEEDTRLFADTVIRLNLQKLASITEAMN; partner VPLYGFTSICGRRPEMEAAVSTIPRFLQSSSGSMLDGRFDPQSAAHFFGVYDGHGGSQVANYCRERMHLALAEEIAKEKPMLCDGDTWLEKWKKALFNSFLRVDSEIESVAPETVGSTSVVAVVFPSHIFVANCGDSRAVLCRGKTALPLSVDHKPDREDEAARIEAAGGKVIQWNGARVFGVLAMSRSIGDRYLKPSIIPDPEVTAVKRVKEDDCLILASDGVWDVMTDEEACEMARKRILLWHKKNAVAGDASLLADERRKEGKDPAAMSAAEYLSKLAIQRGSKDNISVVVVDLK
| Change | relative binding score |
| --- | --- |
| T154M | 83.4% |
| F157C | 8.09% |
| A13F | 93.9% |
| E130C | 106% |
| V100T | 81.9% |
| V43Y | 92.4% |
| Q10G | 101% |
| G108I | 6.89% |

Series 2 — target: CCNE2, cyclin fold, Cln2 fusion (human); technique: yeast growth competition, sequencing; medium: yeast; setting: strong parent motif; baseline: not given; reading: higher = stronger binding
Starting sequence: viral docking peptide; YKVKRRLVFGADD; partner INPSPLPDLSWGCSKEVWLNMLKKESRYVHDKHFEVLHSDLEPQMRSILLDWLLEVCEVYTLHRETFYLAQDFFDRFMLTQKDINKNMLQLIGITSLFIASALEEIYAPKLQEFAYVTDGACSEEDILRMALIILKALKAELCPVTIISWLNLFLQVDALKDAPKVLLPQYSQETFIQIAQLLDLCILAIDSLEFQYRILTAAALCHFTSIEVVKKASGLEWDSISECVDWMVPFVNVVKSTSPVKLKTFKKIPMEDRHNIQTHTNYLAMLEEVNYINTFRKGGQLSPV
| Change | normalised enrichment score |
| --- | --- |
| V8H | 5.41 |
| F9E | 0.299 |
| G10P | 5.27 |
| V3K | 0.459 |
| D12K | 4.81 |
| G10T | 5.27 |
| L7R | 0.844 |
| L7K | 0.712 |
| G10V | 4.76 |
| L7I | 3.18 |
| A11V | 5.55 |
| V3H | 2.42 |
| K2T | 6.33 |
| R5S | 0.543 |
| F9N | 0.434 |
| L7E | 0.565 |
| F9D | 0.661 |
| G10M | 4.26 |
| R5Y | 0.453 |
| R6F | 0.942 |
| G10I | 4.37 |
| K2R | 5.74 |
| D13A | 4.55 |
| G10R | 4.47 |
| A11Q | 5.46 |

Series 3 — technique: RNAcompete; form: RNA; medium: in vitro; concentration: 20 nM; setting: 7-mer, probes averaged, single round; baseline: mean of 7-mers; reading: higher = stronger binding
Target: PABPC1L2, full length, GST fusion (mouse, UniProt A0ABA7IW68)
Target sequence (chain): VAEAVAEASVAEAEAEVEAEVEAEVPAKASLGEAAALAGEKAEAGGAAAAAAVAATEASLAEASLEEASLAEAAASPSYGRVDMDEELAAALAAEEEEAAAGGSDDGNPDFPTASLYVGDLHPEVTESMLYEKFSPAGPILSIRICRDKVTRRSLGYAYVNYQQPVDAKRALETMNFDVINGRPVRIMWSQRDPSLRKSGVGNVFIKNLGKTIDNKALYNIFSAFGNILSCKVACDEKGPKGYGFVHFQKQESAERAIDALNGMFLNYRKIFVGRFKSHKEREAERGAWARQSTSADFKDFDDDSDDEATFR
| Sequence | 7-mer Z-score |
| --- | --- |
| UGGCCAA | -0.0953 |
| CCAAGAA | 0.309 |
| AUCCUGU | -0.432 |
| CGUCUCG | -0.32 |
| GAUGUCA | -0.17 |
| CGGAGUG | -0.175 |
| CCCUUUU | 0.128 |
| UGUAGGC | -0.0645 |

Series 4 — technique: RNA Bind-n-Seq; form: RNA; medium: in vitro; concentration: 200 nM; setting: whole 134-nt RNA, ends assumed; added: 150 mM LiCl; baseline: input library; reading: higher = stronger binding; library: 7-deaza-guanosine replaces G
Target: Fragile X messenger ribonucleoprotein 1, C-terminal low-complexity region (Fmr1, Mus musculus, UniProt P35922)
All sequences stand within: GGGAGUUCUACAGUCCGACGAUC … UGGAAUUCUCGGGUGUCAAGG
| Sequence | log2 enrichment |
| --- | --- |
| AAGUCCUGUGCUACACAUCGUAUGUACCGAAUCGGAAAAAGGAAAAAGGAAAAAGGGAAAGUAUUAUGUUACGCCGUUCGGAUCUGCACU | -0.62 |
| CUGUGCUACACAUCGUAUGUACCGAAUCAAACCCCCCCAAAUUUUUUUAAAUUUUUUUAAAAAAGUAUUAUGUUACGCCGUUCGGAUCUG | 1.31 |
| UUCCUCAAGUCCUGUGCUACACAUCGUAUGUACCGAAUCGGCGGCGGCGGGAAAGUAUUAUGUUACGCCGUUCGGAUCUGCACUUCCAGC | 1.37 |
| CCUGUGCUACACAUCGUAUGUACCGAAUCGGGGAAAAAAGGGGAAAAAAGGAAAAAAGGGAAAGUAUUAUGUUACGCCGUUCGGAUCUGC | 0.126 |
| UGGCCCUGGUGGCAUGCGGGGAGGAAGAGGUGGCCUCAUGGAUCGUGGUGGUCCCGGUGGAAUGUUCAGAGGUCGCCGUGGUGGAGACAG | -0.712 |
| UCCUCAAGUCCUGUGCUACACAUCGUAUGUACCGAAUCGGGGAGGGAGGAGGAAAGUAUUAUGUUACGCCGUUCGGAUCUGCACUUCCAG | -1.22 |
| GGGGACGGCAAAACAGAACAGAAAGGCGGAGAUAAAAAGAGGGGUGUUAAAAGACCACGAGAAGAUCAUGGCCGUGGAUAUUUUGAGUAC | 1.25 |
| UGGCCCUGGUGGCAUGCGGGGAGGAAGAGGUGGCCUCAUGGAUCGUGGUGGUCCCGGUGGAAUGUUCAGAGAUGGCCGUGGUGGAGACAG | -0.355 |

Series 5 — effect on: peptide-MHC binding; form: peptide; concentration: concentration not given
Target: HLA class I histocompatibility antigen, A alpha chain, allele A*25:01 (Homo sapiens, UniProt P04439)
| Sequence | binding |
| --- | --- |
| ATATWFQYY | inactive |
| LPSSSSYSY | inactive |
| GMMRWCMPV | inactive |

Further values, each from its own experiment
B1: ZNRF3 RING domain (UniProt Q9ULT6); chain DTLSSSSTSDCAICLEKYIDGEELRVIPCTHRFHRKCVDPWLLQHHTCPHCRHNIIEQKGNP
| Substance | tested on | assay | system | setting | scale | measurement | value |
| --- | --- | --- | --- | --- | --- | --- | --- |
| NPLOC4 (Homo sapiens, UniProt Q8TAT6) | UFD1 (Homo sapiens, UniProt Q92890) | cross-linking MS | – | hits only | – | interaction screen | cross-linked |
| B1 (ZNRF3 RING domain) | UBE2D4 UBC core domain (UniProt Q9Y2X8) | yeast two-hybrid | yeast | mostly zero background | baseline: not given, higher = stronger interaction | lacZ reporter activity | 0 |
| RPLP2 (Homo sapiens, UniProt P05387) | RPLP0 (Homo sapiens, UniProt P05388) | cross-linking MS | cell fractions | added: DMTMM | – | cross-linked residues | K61 to D271 |
| SEPTIN7 (Homo sapiens, UniProt Q16181) | SEPTIN8 (Homo sapiens, UniProt Q92599) | cross-linking MS | cell fractions | added: DMTMM | – | cross-linked residues | K97 to E13 |
| IMMT (Homo sapiens, UniProt Q16891) | SESTD1 (Homo sapiens, UniProt Q86VW0) | cross-linking MS | cell fractions | added: DSSO | – | cross-linked residues | K211 to S184 |

Some of these lines once more (series 1):
| Change | relative binding score |
| --- | --- |
| T154M | 83.4% |
| E130C | 106% |
| V43Y | 92.4% |
| V100T | 81.9% |
| G108I | 6.89% |
